Measured values from different studies.
Each numbered part is a random draw from the data of one study; scales do not carry over between parts. Changes are numbered by the printed parent chain.

Series 1
Target: ABI1, truncated, D143A, DHFR fusion (Arabidopsis thaliana)
Technique: DHFR PCA, deep sequencing
Matrix: yeast
Setting: methotrexate growth selection, single substitutions
Together with: (+)-ABA 710 µM
Baseline: wild-type fitted maximum
Direction: higher = stronger binding
Quantity: relative binding score
Parent: PYL1, truncated, DHFR fusion (Arabidopsis thaliana); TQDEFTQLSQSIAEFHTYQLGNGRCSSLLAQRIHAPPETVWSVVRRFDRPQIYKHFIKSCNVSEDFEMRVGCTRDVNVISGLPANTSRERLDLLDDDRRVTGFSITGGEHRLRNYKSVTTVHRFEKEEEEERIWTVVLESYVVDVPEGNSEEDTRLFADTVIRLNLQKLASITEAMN; partner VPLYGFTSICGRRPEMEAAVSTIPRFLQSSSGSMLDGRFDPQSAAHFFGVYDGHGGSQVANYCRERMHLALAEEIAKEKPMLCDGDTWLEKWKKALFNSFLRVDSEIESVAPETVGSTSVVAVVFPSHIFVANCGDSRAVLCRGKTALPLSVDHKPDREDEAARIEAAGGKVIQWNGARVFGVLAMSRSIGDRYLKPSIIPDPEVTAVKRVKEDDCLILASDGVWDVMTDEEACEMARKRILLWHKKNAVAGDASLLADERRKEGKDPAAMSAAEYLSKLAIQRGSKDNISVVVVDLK
N149Q: 80.9%
L164K: 95.7%
E130W: 99.3%
L93V: 110%
V100E: 18.6%
A35C: 95.5%
V78K: -28.5%
Q7K: 107%
V100C: 108%
N85A: 104%
L169C: 59.1%
E38N: 90.2%
S26K: 96.7%
A158P: 15.8%
F157A: 35.9%
R99L: 114%
I162K: 48.1%

Series 2
Target: Prothrombin, mature alpha-thrombin (F2, Homo sapiens, UniProt P00734)
Technique: aptamer microarray, sandwich
Form: DNA with 2'F-ANA
Matrix: in vitro
Concentration: 200 nM
Setting: whole 15-mer aptamer, many near background
Together with: Cy3 exosite-II aptamer, 400 nM
Direction: higher = stronger binding
Quantity: mean fluorescence intensity
Sequence: GGTTGGTGTGGTTGG
2'F-ANA at 6 8 10 15: 147 a.u.
2'F-ANA at 1 4 8 14: 52.8 a.u.
2'F-ANA at 1 3 7 10 14 15: 57.9 a.u.
2'F-ANA at 2 3 4 5 6 10 13: 46.7 a.u.
2'F-ANA at 1 2 5 6 7 12 14: 48 a.u.
2'F-ANA at 2 7 9 10 11 15: 116 a.u.
2'F-ANA at 2 13 15: 344 a.u.
2'F-ANA at 1 3 4 5 6 9 10 13 14: 46.8 a.u.
2'F-ANA at 1 2 6 8: 180 a.u.
2'F-ANA at 1 2 3 4 5 6 9 11 13 14: 51.6 a.u.
2'F-ANA at 1 2 3 7 9 11 14 15: 69.5 a.u.
2'F-ANA at 2 12: 895 a.u.
2'F-ANA at 1 3 4 5 7 8 9 11 12 14 15: 107 a.u.
2'F-ANA at 4 14 15: 163 a.u.
2'F-ANA at 4 7 11 12 13 15: 356 a.u.
2'F-ANA at 1 2 3 4 9 10 13 15: 56.3 a.u.
2'F-ANA at 1 3 4 5 9 10 11 15: 48.2 a.u.
2'F-ANA at 1 2 5 10 11 12 13 14: 44.1 a.u.
2'F-ANA at 1 4 8 10 11 13 14: 51.1 a.u.
2'F-ANA at 4 5 6 7 9 10 13 14: 46.5 a.u.
2'F-ANA at 1 2 3 6 8 14: 73.9 a.u.
2'F-ANA at 2 3 5 7 11 13: 79.1 a.u.
2'F-ANA at 2 3 5 6 7 9 13 14: 88.3 a.u.

Series 3
Target: RNA binding protein fox-1 homolog 2, RRM domain, GST-SBP tag (RBFOX2, Homo sapiens, UniProt O43251-10, residues 100-194)
Technique: RNA Bind-n-Seq
Form: RNA
Matrix: in vitro
Concentration: 365 nM
Setting: natural RNA segment, single round, ends assumed
Baseline: no-protein control
Direction: higher = stronger binding
Quantity: RBNS enrichment (R)
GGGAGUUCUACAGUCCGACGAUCAACAUAUUUAAAGAAAUUGAUGGUGUUCAUCAAGCUGGGGCCUGUGGCAGUUGUUGCCUGAGCACCAAGUAACCCAAGCCACCUAUGUGACAACUUCUGGGCCCAGGAGUUGGAAUUCUCGGGUGCCAA: 1.78
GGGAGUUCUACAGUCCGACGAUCCACAAGACCACACACACAGCCCUUACCCUCCUCAGGACUACCGAACCUUCUGGCACACCUUGUACAGAGUUUUGGGGUUCACACCCCAAAAUGACCCAACGAUGUCCACAUGGAAUUCUCGGGUGCCAA: 0.361
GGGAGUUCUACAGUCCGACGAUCUUGCUUCUGCCCACCAAUCAGAGUCUGACUGGCAGUGUUAGUCUCCGACAGAGCUUGUACUAGGGCAGGAAUGGCAGAGACAGGGAUGAUGGUACCCAGAGUGGGCUGUGUGGAAUUCUCGGGUGCCAA: 0.964
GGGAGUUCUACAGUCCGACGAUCUUAUACUGUUCAAGCAGCUCCAACGUCCAGUCUCAACACAGCGCGCCUUCGGCCAGGCAGCGAUCCACGGACCAAACCUCCUGCGCCCUCAGCCGGUGGGUCACUUCUCCUGGAAUUCUCGGGUGCCAA: 0.451
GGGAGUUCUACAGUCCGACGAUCGUUUCUAAAAAAUGAACAUGAAAAAAAUAAGGUAUUUUCUCCCUAGCUUCUCAUUACAGUAUUUCUAAUUGCUUCACACUUUACAGUUUUAAUACAAAGUACAAGCUCUAUGGAAUUCUCGGGUGCCAA: 0.509
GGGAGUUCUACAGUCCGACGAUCUGCUGCUGCUGAUCCGGGGACCGCUGUCUUCCCUCCCAUACGCCUUUCAUCCCUCCUUCUAGGGCCUAUGGCAGUUCUCCCAGGAUGUGUGGCGAGAGCCUGGGCCAGCCUGGAAUUCUCGGGUGCCAA: 0.54
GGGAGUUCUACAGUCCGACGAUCUAUUUUGAUAAACACUGAAGCUGGAGCUGUUAAAUUUAUCUUGGGGAAACCUCAGAACUGGUCUAUUUGGUGUCGUGGAACCUCUUACUGCUUUCAAUACACGAUUAGUAUGGAAUUCUCGGGUGCCAA: 0.381
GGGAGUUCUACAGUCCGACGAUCUGGUUCCAAACCAGAUUUCCUGUGAUUCUAUACUAAUAAUUUUUGAUAUAACCCUUUGCUUCUUAUAAUGAGUGCGAUAUAUGUUGUCGAGGCUGUUCUUCAAGAAUUAAUGGAAUUCUCGGGUGCCAA: 0.452
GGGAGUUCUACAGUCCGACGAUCUCAGUGACCUCCAAGAUUUAGCCACUGGGGACACAUUUUAGUUUCUGGAACACAGCCUGAUCUACAAGUACCAGCAUCGUUCUUUUGCCAGCCAGUGAUUUUCUUUUAAAUGGAAUUCUCGGGUGCCAA: 0.466
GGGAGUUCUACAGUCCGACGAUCCAGGUUAGAAGAACCUGACAUCCACUGUUUGCCUUGGAUAGUAUGGCUUGUUUUUGGAAAGAAAUUCUGAAGAGAGUGGAGGAGAGGAGAAAUGUCCUCAUAUUUGAGGAUGGAAUUCUCGGGUGCCAA: 0.738
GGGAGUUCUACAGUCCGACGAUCACACAAGAAAAAAAAAUAUCCUGGGCAAUAAAAAUUACUUUAAACCAGCUCCAGAGCCGCUCUUUUCCUAAGCCUCCUGUGCCGCCUUCAGUUUGUAGGAGGCAGCCUGUUGGAAUUCUCGGGUGCCAA: 0.698
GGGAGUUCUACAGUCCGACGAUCGAGAGGCACUCAGAAUCCCCUGUAUGGAUGGAAGCCACACCCCCAAAGCCUCUCCAGCUAGCUGGGGCUCCUCCCCCUUCUGAGAGACUUGCGCUCCCGCAGGGAACACAUGGAAUUCUCGGGUGCCAA: 0.466

Series 4
Target: Phosphate system positive regulatory protein PHO4, full length, GST-tagged (PHO4, Saccharomyces cerevisiae, UniProt P07270, residues 1-312)
Technique: competition protein-binding microarray
Form: double-stranded DNA, one strand shown
Matrix: in vitro
Concentration: 2 µM
Setting: whole 60-bp probe, lowest competitor level
Together with: Cbf1 competitor, 0.05 µM
Direction: higher = stronger binding
Quantity: fluorescence intensity
Construct (chain): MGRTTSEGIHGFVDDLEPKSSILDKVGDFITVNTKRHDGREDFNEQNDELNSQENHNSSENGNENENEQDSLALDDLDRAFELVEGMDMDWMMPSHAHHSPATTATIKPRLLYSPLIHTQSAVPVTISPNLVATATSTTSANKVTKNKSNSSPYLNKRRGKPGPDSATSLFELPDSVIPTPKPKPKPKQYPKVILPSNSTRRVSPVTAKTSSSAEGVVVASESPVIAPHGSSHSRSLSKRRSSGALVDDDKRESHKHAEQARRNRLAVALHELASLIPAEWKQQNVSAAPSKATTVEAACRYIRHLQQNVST
ATAATAAAGAATGGTGATGTGATGGTATTCAACTTGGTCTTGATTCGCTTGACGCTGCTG: 5000 a.u.
AAACCAAGGGAAGAAAACGTGAATACGGAGAAACTTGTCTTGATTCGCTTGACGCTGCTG: 9280 a.u.
CCTGCAAAGCAATGCAACGTGGGCCTGTGAGGATGAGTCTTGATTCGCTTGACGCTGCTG: 13500 a.u.
CATACCCAACCTTGTTATGTGGGTGAAGATATTTGTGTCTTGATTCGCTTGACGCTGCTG: 4330 a.u.
CTAACGAAGGTTTTTCACGTGCACTACAAGCCAAGTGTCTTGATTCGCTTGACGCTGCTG: 12500 a.u.
CTAACGAAGGTTTGGCTTGTGGGTGACAAGCCAAGTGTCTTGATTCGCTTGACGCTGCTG: 3920 a.u.
TGATAACTTCCGAGTCACGTGTGAAGGAATTCTTAAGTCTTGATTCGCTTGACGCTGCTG: 13400 a.u.
CTTTCCCGATCTTGTCACTGGACTTTAGCACATTTGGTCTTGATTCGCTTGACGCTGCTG: 3660 a.u.
TTTAGGTAATTTGACACCGTGCCGAAATGGCTTGGCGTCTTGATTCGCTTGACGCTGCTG: 8640 a.u.
CTTTCCCGATCTTGGTATGTGGGTGTAGCACATTTGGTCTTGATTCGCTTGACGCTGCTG: 5440 a.u.
GCCCGGTCAAGTACTCACGTTCTGCTGTAGGTGACGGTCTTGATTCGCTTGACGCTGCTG: 8600 a.u.
TTACCCAGCGATCCGCCCGTGAGGTGATGCGCAAAAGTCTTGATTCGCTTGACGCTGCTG: 4870 a.u.
TCTATCCTATTTTAAAACGTGAATATTCCAAGATGAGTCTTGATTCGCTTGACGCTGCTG: 9280 a.u.
GCACCGTAATCCATTAATGTGTCGCAGGCTTTCACCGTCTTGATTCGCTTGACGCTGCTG: 3660 a.u.
ACCGTATTTGCTCCTCACGTGTCCAGTAGGTTTCGGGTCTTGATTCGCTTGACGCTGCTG: 15600 a.u.
CGGTTTTTGGCGCGTTTCGTGACTCGAACACCCAGTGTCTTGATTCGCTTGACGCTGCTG: 4860 a.u.
GTTACTGGTGGTTGTCATGTTTCCCAAGTTTACGCCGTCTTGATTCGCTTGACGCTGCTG: 4740 a.u.
CTTAATTGCAAGATTCAGCTGACTGCATATGGGCAGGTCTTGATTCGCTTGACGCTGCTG: 4440 a.u.
AAAGCGGTAATTTGATAGGTGGGTGCAGATATCTATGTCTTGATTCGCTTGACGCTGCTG: 4240 a.u.
TGCGCAACAACTTGTCACGGTACTTTATGTCTAGAAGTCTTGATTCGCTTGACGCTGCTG: 4300 a.u.
AGCGACTATATTTTGCACGCTCTTAAAGCAGCCACCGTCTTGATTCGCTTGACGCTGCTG: 7610 a.u.
TATCGAAAAGGTCCTCACGTTATAAGGCTAACAAATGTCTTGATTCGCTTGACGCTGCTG: 6410 a.u.
AAAGCGGTAATTTGTGGAGTGGGTGCAGATATCTATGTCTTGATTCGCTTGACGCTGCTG: 4410 a.u.

Series 5
Target: Histone acetyltransferase KAT6A, winged helix 1, GST fusion (KAT6A, Homo sapiens, UniProt Q92794, residues 1-85)
Technique: protein binding microarray
Form: double-stranded DNA, one strand shown
Matrix: in vitro
Concentration: not given
Setting: 8-mer, flanks averaged, mean of 2 arrays, mostly near background
Baseline: not given
Direction: higher = stronger binding
Quantity: E-score
Target sequence (chain): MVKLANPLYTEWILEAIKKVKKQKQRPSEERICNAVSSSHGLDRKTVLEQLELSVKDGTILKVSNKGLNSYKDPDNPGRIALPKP
ACACCCGT: 0.141
GGTACGAC: 0.0158
ATAGTACA: -0.0591
ACAATTGC: -0.0363
ACAACCCT: -0.103
CGTAGTGA: -0.0163
CTTCACGA: -0.0883
CCTCAAGC: -0.0446
GCTAGCTA: 0.0263
CTACCCTA: -0.0358
TAACCACA: -0.121
AGTAAACT: -0.0309
CGGCCCTC: 0.311
AGAGATAC: -0.0857
ATATGCTG: -0.138
CAGTGAGG: -0.107
CTATTGGC: -0.02
CATACGGC: 0.347
CGATTATC: 0.0692

Excerpt of the above (series 2):
2'F-ANA at 6 8 10 15: 147 a.u.
2'F-ANA at 1 4 8 14: 52.8 a.u.
2'F-ANA at 1 3 7 10 14 15: 57.9 a.u.
2'F-ANA at 2 3 4 5 6 10 13: 46.7 a.u.
2'F-ANA at 1 2 5 6 7 12 14: 48 a.u.
2'F-ANA at 2 7 9 10 11 15: 116 a.u.
2'F-ANA at 2 13 15: 344 a.u.
2'F-ANA at 1 3 4 5 6 9 10 13 14: 46.8 a.u.
2'F-ANA at 1 2 6 8: 180 a.u.
2'F-ANA at 1 2 3 4 5 6 9 11 13 14: 51.6 a.u.
2'F-ANA at 1 2 3 7 9 11 14 15: 69.5 a.u.
2'F-ANA at 2 12: 895 a.u.
2'F-ANA at 1 3 4 5 7 8 9 11 12 14 15: 107 a.u.
2'F-ANA at 4 14 15: 163 a.u.
